Experimental data from different studies.
Protocols differ between the studies behind these lines. Values after ≈ are worked out from the molar mass of the structure shown.

Structure (SMILES) | target or system | assay | system | setting | quantity | result
CC(C)(C)c1ccc(O)c(CN(Cc2cc(C(C)(C)C)ccc2O)C2CCC(NC(N)=O)CC2)c1 (stereo not drawn) |  |  | male C57BL/6 mouse, brain | intraperitoneal, 10 mg/kg, single dose | Tmax | 0.5 h
Cc1cc(NC(=O)c2cccc(NC(=O)/C=C/CN(C)C)c2)ccc1Nc1nccc(-c2cccnc2)n1 |  | metabolic stability | male Wistar rat, hepatocytes | 1 µM | half-life | 119 min
Cc1ccc2c(c1)nc(/C=C/c1cccc3cccnc13)n2-c1ccccc1 |  | metabolic stability | rat, liver microsomes | 1.5 µM, 10 min | compound remaining | 66.9%
Cc1nc(-c2cnc(NC(C)C)n(C)c2=O)ccc1Oc1ccnc(-c2cnn(C)c2)c1 |  |  | female mouse, plasma | oral, 30 mg/kg, single dose | Tmax | 6 h
OCc1ccc(-c2nn(Cc3cccnc3)c3cccnc23)o1 |  | metabolic stability | rat, liver microsomes | 1 µM, pH 7.4 | half-life | > 30 min
CCN1CCN(Cc2ccc(NC(=O)c3ccc(C)c(NC(=O)c4cncc(-c5cccs5)c4)c3)cc2C(F)(F)F)CC1 |  |  | mouse, plasma | intraperitoneal, 30 mg/kg, single dose | Tmax | 0.5 h
CC[C@@](N)(c1ccc(C(F)(F)F)c(Cl)c1)c1c2cnn(C3CC3)c(=O)c2nn1C |  | nephelometry | aqueous buffer | 30 min, pH 6.5 | kinetic solubility | 20 to 40 µM (≈ 8.52 to 17 µg/mL)
COc1ccc2c(=O)n(C)c(-c3ccccc3)nc2c1 |  |  | male Sprague-Dawley rat, spleen | oral, 30 mg/kg, 4 h, single dose | concentration | 67.4 ng/g
N#C[C@@]1(c2ccc3c(N)ncnn23)O[C@H](CO)[C@@H](O)[C@H]1O |  |  | dog, plasma |  | fraction unbound | 0.923
CCn1ncc2c([C@](O)(c3ccc(C(F)(F)F)c(Cl)c3)C3CC3)n(C)nc2c1=O |  | nephelometry | aqueous buffer | 30 min, pH 6.5 | kinetic solubility | < 5 µM
NCc1cc2c(cc1F)C(=O)N(C1CCC(=O)NC1=O)C2 (stereo not drawn) |  |  | male cynomolgus monkey, plasma | oral, 0.3 mg/kg | Cmax | 1.57 ng/mL
COc1ccc(N/N=C/c2ccc(-c3cccc(/C=N/Nc4ccc(OC)cc4)c3)cc2)cc1 |  | haemolysis | mouse | 62.5 µg/mL, 1 h | haemolysis | < 30%
O=C1CC[C@H](N2Cc3cc(N4CCN(CC5CCN(c6ccc([C@@H]7c8ccc(O)cc8CC[C@@H]7c7ccccc7)cc6)CC5)CC4)ccc3C2=O)C(=O)N1 |  |  | Sprague-Dawley rat, plasma | intravenous, 5 mg/kg | clearance | 11.7 mL/min/kg
Cn1nc2c(=O)n(C3CC3)ncc2c1[C@](N)(c1ccc(C(F)(F)F)c(Cl)c1)C1CC1 |  | nephelometry | aqueous buffer | 30 min, pH 6.5 | kinetic solubility | 12.5 to 25 µM (≈ 5.47 to 10.9 µg/mL)
N=C(N)N/N=C/c1ccc(-c2cccc(/C=N/NC(=N)N)c2)cc1 |  | haemolysis | mouse | 62.5 µg/mL, 1 h | haemolysis | < 20%
Cn1nc2c(=O)n(C3CC3)ccc2c1Cc1ccc(C(F)(F)F)c(C#N)c1 |  | nephelometry | aqueous buffer | 30 min, pH 6.5 | kinetic solubility | 67 to 134 µM (≈ 24.9 to 49.9 µg/mL)
CC1(C)CN(C(=O)Cn2c(=O)c(C(=O)NCc3ccc(Cl)cc3)cc3nccnc32)C1 |  |  | aqueous buffer | 24 h, pH 7.4, 37 °C | thermodynamic solubility | 41.4 µM (≈ 18.2 µg/mL)
CCn1cc(Cl)c2c(Cc3ccc(C(F)(F)F)nc3)n(C)nc2c1=O |  | nephelometry | aqueous buffer | 30 min, pH 6.5 | kinetic solubility | 70 to 140 µM (≈ 26 to 51.9 µg/mL)
Cc1ncsc1-c1ccc([C@H](C)NC(=O)[C@@H]2C[C@@H](O)CN2C(=O)[C@@H](NC(=O)CCOCCOCCC(=O)NCCCn2cc(-c3ccc4c(c3)CCN4C(=O)Cc3cccc(OC(F)(F)F)c3)c3c(N)ncnc32)C(C)(C)C)cc1 |  | metabolic stability | mouse, liver S9 | 1 µM | half-life | 9.7 min
O=C(COc1ccc(Cl)cc1)NC12CC(c3nnc([C@H]4C[C@@H](OC(F)(F)F)C4)o3)(C1)C2 |  |  | human, plasma | oral, 100 mg, multiple doses, once daily, steady state, healthy volunteers | Tmax | 4.05 h

Structure (SMILES) | target or system | assay | system | setting | quantity | result
Cc1cc(C)cc(C(=O)c2c(C(C)C)c(=O)[nH]c(=O)n2Cc2ccnc(N)c2)c1 |  |  | male Sprague-Dawley rat, plasma | intravenous, 20 mg/kg | Vd | 184 L/kg
Cc1ccc2c(c1)nc(CCc1cccc3cccnc13)n2-c1ccccc1 |  | metabolic stability | rat, liver microsomes | 1.5 µM, 0 h | compound remaining | 100%
CCCCC(=O)Nc1ccc(-c2ccc3ncn(CCC)c(=O)c3c2)cn1 | FLT3 (Homo sapiens, UniProt P36888, D835V) | binding, competition with immobilised ligand |  | 0.5 µM | remaining binding | 100%
Fc1cccc(N/N=C/c2ccc(-c3cccc(/C=N/Nc4cccc(F)c4)c3)cc2)c1 |  | haemolysis | mouse | 15.6 µg/mL, 1 h | haemolysis | < 20%
Cc1noc(C)c1Cn1cc(N2C(=O)CN(Cc3cccc(O)c3)C2=O)cn1 |  |  | male Sprague-Dawley rat, plasma | oral, 30 mg/kg, 1 h | concentration | 28.9 ng/mL
CC/C(=C(\c1ccc(O)cc1)c1ccc(OCCNC)cc1)c1ccccc1 |  |  | female C57BL/6 mouse, plasma | oral, 1 mg/kg, single dose | half-life | 1860 min
COc1cccc(-c2n[nH]c(SCc3ccccn3)n2)c1OC |  |  | female Sprague-Dawley rat, plasma | oral, 10 mg/kg, 2 h, single dose | concentration | 1290 ng/mL
Cc1c(C(=O)O)ccc2c3n(nc12)[C@@H]1[C@H](C3)N(CC2CC2)[C@@]2(C(=O)Nc3cc(Cl)ccc32)[C@H]1c1cccc(Cl)c1F |  |  | male dog, plasma | intravenous | Vd | 0.56 L/kg
COc1ccc([C@@H](O)c2cc(-c3ncnc4cc(N5CCOCC5)ccc34)c(F)cc2Cl)nn1 |  |  | human, plasma | oral, 150 mg, multiple doses, once daily, patients | Tmax | 2.18 h
NCc1ccc(-c2nn(Cc3ccncc3)c3ccccc23)o1 |  |  | male CD-1 mouse, plasma | intraperitoneal, 30 mg/kg | bioavailability | 84%
CCn1cc(C2CC2)c2c(Cc3cnc(C(F)(F)F)c(C)c3)n(C)nc2c1=O |  | nephelometry | aqueous buffer | 30 min, pH 6.5 | kinetic solubility | 50 to 100 µM (≈ 19.5 to 39 µg/mL)
COc1cc2c3c(n(CCCN4CCOCC4)c(=O)c2cc1OC)-c1cc2c(cc1C3=O)OCO2 |  |  | male beagle dog, plasma | intravenous, 100 mg/m², infusion | half-life | 594 min
O=C(c1ccc(F)cc1)C1CCN(CCn2c(=O)[nH]c3ccccc3c2=O)CC1 |  | metabolic stability | rat, liver microsomes | 15 min | compound remaining | 57.2%
CN(C(=O)n1cnc(-c2ccc[n+]([O-])c2)c1)C1CCCCC1 |  |  | male cynomolgus monkey, plasma | oral, 1 mg/kg | AUC(0-t) | 1890 ng·h/mL
Cc1cccc(NC(=O)CCCCCCCCC(=O)N2CCC(n3cc(-c4ccc5c(c4)CCN5C(=O)Cc4cccc(OC(F)(F)F)c4)c4c(N)ncnc43)CC2)c1C(=O)N1C[C@H](O)C[C@H]1C(=O)N[C@@H](C)c1ccc(-c2scnc2C)cc1 |  | metabolic stability | mouse, liver S9 | 1 µM | half-life | 55.2 min
CCn1ccc2c([C@@](O)(CC)c3ccc(C(F)(F)F)nc3)n(C)nc2c1=O |  | nephelometry | aqueous buffer | 30 min, pH 6.5 | kinetic solubility | 40 to 80 µM (≈ 15.2 to 30.4 µg/mL)
Cc1nccn1CC1CCc2c(c3ccccc3n2C)C1=O (stereo not drawn) |  |  | male Sprague-Dawley rat, plasma | intravenous | Vd | 1.86 L/kg
CCn1cc(C)c2c([C@H](O)c3cnc(C(F)(F)F)c(Cl)c3)n(C)nc2c1=O |  | nephelometry | aqueous buffer | 30 min, pH 6.5 | kinetic solubility | 160 to 320 µM (≈ 64.1 to 128 µg/mL)
CCOC(=O)[C@@]12C[C@@H]1[C@@H](n1ccc3c(NC)nc(C#Cc4ccc(Cl)s4)nc31)[C@H](O)[C@@H]2O |  |  | male Sprague-Dawley rat, plasma | intravenous, 0.5 mg/kg | C0 | 28.8 ng/mL

Repeated from above:
Structure (SMILES) | target or system | assay | system | setting | quantity | result
CCn1cc(C2CC2)c2c(Cc3cnc(C(F)(F)F)c(C)c3)n(C)nc2c1=O |  | nephelometry | aqueous buffer | 30 min, pH 6.5 | kinetic solubility | 50 to 100 µM (≈ 19.5 to 39 µg/mL)
Cc1cc(C)cc(C(=O)c2c(C(C)C)c(=O)[nH]c(=O)n2Cc2ccnc(N)c2)c1 |  |  | male Sprague-Dawley rat, plasma | intravenous, 20 mg/kg | Vd | 184 L/kg
CC(C)(C)c1ccc(O)c(CN(Cc2cc(C(C)(C)C)ccc2O)C2CCC(NC(N)=O)CC2)c1 (stereo not drawn) |  |  | male C57BL/6 mouse, brain | intraperitoneal, 10 mg/kg, single dose | Tmax | 0.5 h
CCn1cc(C)c2c([C@H](O)c3cnc(C(F)(F)F)c(Cl)c3)n(C)nc2c1=O |  | nephelometry | aqueous buffer | 30 min, pH 6.5 | kinetic solubility | 160 to 320 µM (≈ 64.1 to 128 µg/mL)
